Experimental data gathered from unrelated publications.
Each numbered part is a random draw from the data of one study; scales do not carry over between parts. Several values in a cell are separate wells, animals, samples, runs or records.
UniProt P00519, sequence (whole entry, unmodified, looked up): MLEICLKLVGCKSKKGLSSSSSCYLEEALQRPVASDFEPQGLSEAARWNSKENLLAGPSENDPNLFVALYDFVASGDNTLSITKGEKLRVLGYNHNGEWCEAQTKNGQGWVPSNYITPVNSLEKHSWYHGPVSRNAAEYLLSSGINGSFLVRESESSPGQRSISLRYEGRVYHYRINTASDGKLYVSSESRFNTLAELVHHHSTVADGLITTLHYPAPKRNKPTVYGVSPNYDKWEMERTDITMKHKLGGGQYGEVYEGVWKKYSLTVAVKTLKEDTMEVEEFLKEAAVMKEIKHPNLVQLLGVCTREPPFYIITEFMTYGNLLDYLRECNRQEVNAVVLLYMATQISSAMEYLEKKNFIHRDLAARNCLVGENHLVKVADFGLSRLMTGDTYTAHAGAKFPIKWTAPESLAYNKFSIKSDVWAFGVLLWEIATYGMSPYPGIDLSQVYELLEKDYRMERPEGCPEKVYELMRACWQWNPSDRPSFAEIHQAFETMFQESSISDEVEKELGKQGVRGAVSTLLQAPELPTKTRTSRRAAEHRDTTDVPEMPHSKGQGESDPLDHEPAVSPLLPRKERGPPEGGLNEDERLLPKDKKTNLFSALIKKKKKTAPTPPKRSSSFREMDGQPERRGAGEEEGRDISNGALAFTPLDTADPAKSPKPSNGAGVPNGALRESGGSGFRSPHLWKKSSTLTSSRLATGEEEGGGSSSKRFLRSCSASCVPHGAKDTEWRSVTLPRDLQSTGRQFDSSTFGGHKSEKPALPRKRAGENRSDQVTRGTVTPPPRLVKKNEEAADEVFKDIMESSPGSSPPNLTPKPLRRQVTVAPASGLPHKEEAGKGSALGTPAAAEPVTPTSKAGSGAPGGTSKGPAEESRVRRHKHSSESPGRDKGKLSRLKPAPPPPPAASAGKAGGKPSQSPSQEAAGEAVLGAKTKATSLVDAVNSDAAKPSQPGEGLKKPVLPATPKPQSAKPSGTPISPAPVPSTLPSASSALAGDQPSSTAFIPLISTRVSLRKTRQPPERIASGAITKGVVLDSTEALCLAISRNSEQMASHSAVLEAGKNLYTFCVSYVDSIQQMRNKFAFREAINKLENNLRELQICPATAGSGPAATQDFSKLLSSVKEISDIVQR
UniProt P29322, sequence (whole entry, looked up): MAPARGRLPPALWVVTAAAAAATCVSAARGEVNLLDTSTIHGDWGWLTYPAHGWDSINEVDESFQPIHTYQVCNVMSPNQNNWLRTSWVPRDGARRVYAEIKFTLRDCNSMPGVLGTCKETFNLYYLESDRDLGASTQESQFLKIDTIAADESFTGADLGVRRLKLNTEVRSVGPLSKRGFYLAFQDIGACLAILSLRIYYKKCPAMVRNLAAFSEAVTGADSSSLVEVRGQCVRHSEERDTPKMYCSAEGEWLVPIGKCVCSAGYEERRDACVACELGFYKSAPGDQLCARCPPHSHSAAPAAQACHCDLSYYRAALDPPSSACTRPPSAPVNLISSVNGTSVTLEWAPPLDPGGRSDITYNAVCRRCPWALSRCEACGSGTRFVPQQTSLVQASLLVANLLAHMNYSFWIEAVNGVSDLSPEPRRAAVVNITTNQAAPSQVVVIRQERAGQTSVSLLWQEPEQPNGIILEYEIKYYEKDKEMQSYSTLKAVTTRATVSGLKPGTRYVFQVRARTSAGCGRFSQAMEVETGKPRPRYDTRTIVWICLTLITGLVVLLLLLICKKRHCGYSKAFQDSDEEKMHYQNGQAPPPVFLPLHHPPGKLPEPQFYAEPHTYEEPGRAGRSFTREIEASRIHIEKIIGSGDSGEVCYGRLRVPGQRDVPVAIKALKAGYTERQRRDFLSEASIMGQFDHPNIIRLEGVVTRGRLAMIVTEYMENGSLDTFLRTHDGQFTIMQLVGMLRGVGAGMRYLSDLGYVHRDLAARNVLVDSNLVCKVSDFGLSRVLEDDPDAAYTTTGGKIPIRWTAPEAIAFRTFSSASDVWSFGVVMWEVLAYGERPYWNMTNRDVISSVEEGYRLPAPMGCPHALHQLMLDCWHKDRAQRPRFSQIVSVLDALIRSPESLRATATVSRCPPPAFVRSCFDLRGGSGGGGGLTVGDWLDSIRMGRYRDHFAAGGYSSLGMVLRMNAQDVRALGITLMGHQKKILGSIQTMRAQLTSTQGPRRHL
UniProt Q5VT25, sequence (whole entry, looked up): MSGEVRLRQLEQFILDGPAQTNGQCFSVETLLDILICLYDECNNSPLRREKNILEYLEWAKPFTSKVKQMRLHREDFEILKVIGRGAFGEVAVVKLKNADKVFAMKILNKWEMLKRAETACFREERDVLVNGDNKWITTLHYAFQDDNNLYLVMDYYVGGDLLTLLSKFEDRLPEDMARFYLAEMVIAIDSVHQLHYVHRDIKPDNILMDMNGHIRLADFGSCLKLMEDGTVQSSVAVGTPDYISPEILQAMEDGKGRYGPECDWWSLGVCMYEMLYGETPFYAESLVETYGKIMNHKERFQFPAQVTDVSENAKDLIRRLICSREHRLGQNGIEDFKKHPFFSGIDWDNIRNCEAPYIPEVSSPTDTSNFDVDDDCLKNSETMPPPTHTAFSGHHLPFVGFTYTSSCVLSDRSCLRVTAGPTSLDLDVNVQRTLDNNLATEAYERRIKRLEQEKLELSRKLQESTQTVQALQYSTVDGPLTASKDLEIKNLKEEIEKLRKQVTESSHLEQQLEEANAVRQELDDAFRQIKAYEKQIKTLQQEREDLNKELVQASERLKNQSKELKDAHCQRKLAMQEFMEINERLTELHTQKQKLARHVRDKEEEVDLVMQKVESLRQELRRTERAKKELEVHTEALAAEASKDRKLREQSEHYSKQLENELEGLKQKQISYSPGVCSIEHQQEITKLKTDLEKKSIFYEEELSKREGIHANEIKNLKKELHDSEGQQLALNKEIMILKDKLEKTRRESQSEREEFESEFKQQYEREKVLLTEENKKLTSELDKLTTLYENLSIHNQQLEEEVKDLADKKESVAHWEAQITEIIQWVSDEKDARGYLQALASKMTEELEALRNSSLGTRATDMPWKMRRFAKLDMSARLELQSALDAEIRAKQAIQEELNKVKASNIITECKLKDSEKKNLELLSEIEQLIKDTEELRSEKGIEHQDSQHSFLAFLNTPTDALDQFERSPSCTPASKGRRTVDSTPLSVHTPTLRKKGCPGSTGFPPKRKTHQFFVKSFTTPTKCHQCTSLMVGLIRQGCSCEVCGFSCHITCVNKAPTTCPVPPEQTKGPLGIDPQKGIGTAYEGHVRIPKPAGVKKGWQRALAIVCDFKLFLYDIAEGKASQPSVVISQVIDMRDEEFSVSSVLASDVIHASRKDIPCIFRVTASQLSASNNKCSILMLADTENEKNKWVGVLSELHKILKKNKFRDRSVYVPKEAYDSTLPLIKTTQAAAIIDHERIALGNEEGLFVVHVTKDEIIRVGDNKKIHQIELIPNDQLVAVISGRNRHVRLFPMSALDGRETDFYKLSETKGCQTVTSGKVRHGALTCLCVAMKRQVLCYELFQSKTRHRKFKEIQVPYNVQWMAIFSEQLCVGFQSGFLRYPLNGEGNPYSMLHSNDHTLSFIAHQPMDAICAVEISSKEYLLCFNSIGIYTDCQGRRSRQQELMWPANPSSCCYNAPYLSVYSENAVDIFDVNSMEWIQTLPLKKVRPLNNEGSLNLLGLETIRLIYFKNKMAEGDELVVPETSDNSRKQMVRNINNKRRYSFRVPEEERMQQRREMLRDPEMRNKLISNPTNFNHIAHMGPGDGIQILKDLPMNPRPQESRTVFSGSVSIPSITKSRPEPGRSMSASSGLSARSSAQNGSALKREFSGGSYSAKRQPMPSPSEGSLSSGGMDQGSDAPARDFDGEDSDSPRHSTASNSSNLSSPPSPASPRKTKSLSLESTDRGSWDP
UniProt P78368, sequence (whole entry, looked up): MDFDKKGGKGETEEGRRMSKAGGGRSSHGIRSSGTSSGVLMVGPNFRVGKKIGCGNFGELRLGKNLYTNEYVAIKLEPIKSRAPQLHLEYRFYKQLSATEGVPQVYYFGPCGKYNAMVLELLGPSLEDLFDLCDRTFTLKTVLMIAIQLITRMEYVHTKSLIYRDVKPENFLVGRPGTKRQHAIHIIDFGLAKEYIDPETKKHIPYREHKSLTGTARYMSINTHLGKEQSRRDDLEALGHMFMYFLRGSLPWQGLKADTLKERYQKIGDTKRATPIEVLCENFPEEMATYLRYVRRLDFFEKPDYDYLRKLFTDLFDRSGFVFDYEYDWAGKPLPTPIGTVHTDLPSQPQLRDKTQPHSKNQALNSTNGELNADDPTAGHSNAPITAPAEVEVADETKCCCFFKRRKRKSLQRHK

Series 1 — effect on: enzyme activity; mode: inhibitor; tested at: 0.5 µM; reference: control
Target: Casein kinase II subunit alpha (CSNK2A1, Homo sapiens, UniProt P68400)
UniProt P68400, sequence (whole entry, looked up): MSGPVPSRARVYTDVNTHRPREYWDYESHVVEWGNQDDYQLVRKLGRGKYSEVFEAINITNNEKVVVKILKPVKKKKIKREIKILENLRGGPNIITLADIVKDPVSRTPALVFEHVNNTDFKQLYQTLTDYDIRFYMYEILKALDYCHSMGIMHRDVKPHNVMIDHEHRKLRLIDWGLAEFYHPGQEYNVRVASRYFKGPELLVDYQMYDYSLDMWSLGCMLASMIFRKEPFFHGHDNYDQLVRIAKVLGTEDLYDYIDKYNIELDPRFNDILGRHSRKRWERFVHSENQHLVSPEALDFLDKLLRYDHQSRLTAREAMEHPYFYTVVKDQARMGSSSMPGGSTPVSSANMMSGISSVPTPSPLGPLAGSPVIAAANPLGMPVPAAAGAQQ
SMILES | remaining activity
N#CC(C#N)=C(N)/C(C#N)=C/c1ccc(O)cc1 | 104%
O=C(Nc1cccc(Nc2cc(Nc3cccc(C(F)(F)F)c3)ncn2)c1)C1CC1 | 92.6%
Nc1ccc2ncnc(NCCc3ccc(Oc4ccccc4)cc3)c2c1 | 95.2%
COc1cc2ncnc(Nc3ccc(Oc4ccccc4)cc3)c2cc1OC | 114%
CCOC(=O)c1c(C)[nH]c(/C=C2\C(=O)Nc3ccccc32)c1C | 114%
COc1ccc(CNC(=O)Nc2ncc([N+](=O)[O-])s2)cc1 | 94.2%
OCC(O)CCON=C1C(c2c(O)[nH]c3ccccc23)=Nc2ccccc21 (stereo not drawn) | 57.6%
Nc1[nH]nc2nc3ccccc3nc12 | 87.6%
O=C1NC(=O)C(c2cn(CCCO)c3ncccc23)=C1c1cnccn1 | 78.9%
Cc1cccc(-c2[nH]c(C(C)(C)C)nc2-c2ccc3c(c2)OCO3)n1 | 98%
Oc1ccc(-c2nc(-c3ccncc3)c(-c3ccc(F)cc3)[nH]2)cc1 | 92.4%
Cn1sc(=O)n(Cc2ccccc2)c1=O | 95.4%
CN(C)c1ccc(C=C2C(=O)Nc3ccccc32)cc1 | 89.7%
Nc1ncnc2n[nH]c(Nc3ccc(F)cc3)c12 | 89.9%
CC(C)[C@H](CO)Nc1nc(Nc2cc(N)cc(Cl)c2)c2ncn(C(C)C)c2n1 | 99.3%

Series 2 — tested at: 1 µM
Structure (SMILES): Cc1ccc(NC(=O)c2ccnc(C(F)(F)F)c2)cc1-c1cc(OCCO)nc(N2CCOCC2)c1
target | assay | remaining binding [%]
ABL1 (Homo sapiens, UniProt P00519, H396P) | – | 83
CAMK1G (Homo sapiens, UniProt Q96NX5) | binding | 100
EPHA8 (Homo sapiens, UniProt P29322) | binding, competition with immobilised ligand | 92
MST1R (Homo sapiens, UniProt Q04912) | binding | 87
EPHB1 (Homo sapiens, UniProt P54762) | binding, competition with immobilised ligand | 91

Series 3 — tested at: 1 µM
SMILES: O=C1NC(c2ccccn2)Sc2ccccc21 (stereo not drawn)
target | assay | remaining binding
PRKACB (Homo sapiens, UniProt P22694) | cell-free assay, competition with immobilised ligand | 97%
Tyrosine-protein kinase ABL1, phosphorylated (ABL1, Homo sapiens, UniProt P00519, F317I) | binding | 88%
MERTK (Homo sapiens, UniProt Q12866) | cell-free assay, competition with immobilised ligand | 75%
PTK2B (Homo sapiens, UniProt Q14289) | cell-free assay, competition with immobilised ligand | 76%
CSNK1G2 (Homo sapiens, UniProt P78368) | cell-free assay, competition with immobilised ligand | 88%
CDC42BPA (Homo sapiens, UniProt Q5VT25) | cell-free assay, competition with immobilised ligand | 84%
DAPK1 (Homo sapiens, UniProt P53355) | cell-free assay, competition with immobilised ligand | 100%

Series 4 — cell line: mouse MPNST tumor cells; method: high-content nuclear imaging; measured: cell number; tested at: 10 µM; time: 12 h; notes: mean of 2 replicates; reference: plate mean; direction: higher = more cells
Compound | nuclei count
COc1ccc2c(c1)c(CC(=O)OCC(=O)O)c(C)n2C(=O)c1ccc(Cl)cc1 | 2.57 z-score
CN(C)/N=N/c1[nH]cnc1C(N)=O | 0.153 z-score
CSc1ccc2c(c1)N(CCC1CCCCN1C)c1ccccc1S2 (stereo not drawn) | -7.38 z-score
Cc1cc(Nc2cc(Cl)nc(Oc3ccc([N+](=O)[O-])cc3)n2)n[nH]1 | -4.02 z-score
Nc1ncc2c(n1)CC(c1ccco1)CC2=O (stereo not drawn) | 0.479 z-score
COCCCOc1cc(C[C@@H](C[C@H](N)[C@@H](O)C[C@H](C(=O)NCC(C)(C)C(N)=O)C(C)C)C(C)C)ccc1OC | 1.38 z-score and 0.432 z-score and 1.01 z-score

Some of these lines once more (series 1):
SMILES | remaining activity
CCOC(=O)c1c(C)[nH]c(/C=C2\C(=O)Nc3ccccc32)c1C | 114%
COc1ccc(CNC(=O)Nc2ncc([N+](=O)[O-])s2)cc1 | 94.2%
OCC(O)CCON=C1C(c2c(O)[nH]c3ccccc23)=Nc2ccccc21 (stereo not drawn) | 57.6%
